Measured values of several laboratories.
Every numbered part comes from another study and shows a few of its results, in no order.

Set 1
Target: Histone acetyltransferase KAT6A, winged helix 2, GST fusion (KAT6A, Homo sapiens, UniProt Q92794, residues 85-181)
Method: protein binding microarray
Form: double-stranded DNA, one strand shown
Matrix: in vitro
Concentration: not given
Setting: 8-mer, flanks averaged, mean of 2 arrays, mostly near background
Baseline: not given
Direction: higher = stronger binding
Construct (chain): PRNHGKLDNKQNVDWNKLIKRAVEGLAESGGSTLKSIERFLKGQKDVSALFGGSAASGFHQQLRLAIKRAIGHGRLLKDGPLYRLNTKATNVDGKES
| Oligonucleotide | E-score |
| --- | --- |
| GATACACA | -0.0964 |
| AAATTCTG | -0.0328 |
| CATTTTCA | -0.027 |
| TGGCGCAA | -0.0724 |
| ATATGTGC | -0.1 |
| ATTAGCCC | 0.0867 |
| GAATAATC | 0.143 |
| GACGGGTA | -0.209 |
| CCCCGTAC | -0.0913 |
| AAAGAAAA | 0.0199 |
| CCGATTAG | 0.00932 |
| ATGCTTAC | -0.121 |
| GCAGCTGA | 0.116 |
| TGGCACCA | -0.0242 |
| CTGAGCCA | -0.116 |
| CGTCCTCA | 0.00315 |
| AGCGGCCT | 0.107 |
| ATTTGCTC | 0.0218 |
| GTGCCTCA | -0.134 |
| ACGTACAA | -0.168 |
| AACATACT | -0.242 |
| AGAAACCC | 0.0849 |
| CAGAAAGC | -0.0853 |
| AATTAACC | 0.162 |
| CGGAAGCC | 0.215 |

Set 2
Target: RING finger protein unkempt homolog, zinc fingers 1-6, GST-SBP tag (UNK, Homo sapiens, UniProt Q9C0B0, residues 30-357)
Method: RNA Bind-n-Seq
Form: RNA
Matrix: in vitro
Concentration: not given
Setting: RNA with constant flanks, human-mouse chimeric sites, ends assumed
Baseline: input RNA pool
Direction: higher = stronger binding
Constant ends, left off below: GGGAGUUCUACAGUCCGACGAUC … CAACAGAGGAUUGAGCAUCA
Residues (chain): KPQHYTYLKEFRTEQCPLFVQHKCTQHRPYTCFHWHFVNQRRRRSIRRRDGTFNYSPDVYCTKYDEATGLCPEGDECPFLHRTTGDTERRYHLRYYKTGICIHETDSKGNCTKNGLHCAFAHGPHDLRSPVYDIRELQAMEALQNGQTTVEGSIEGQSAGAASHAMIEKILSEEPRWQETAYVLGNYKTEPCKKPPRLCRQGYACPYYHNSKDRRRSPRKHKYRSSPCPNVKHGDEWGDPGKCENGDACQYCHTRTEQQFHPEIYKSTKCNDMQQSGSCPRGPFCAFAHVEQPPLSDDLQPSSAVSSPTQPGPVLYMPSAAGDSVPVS
| Oligonucleotide | bound/input enrichment [ratio] |
| --- | --- |
| GUAUACGGUUAUCGAGGAAAGGACUGUAGAGCGAAUGUUUACCUUCUUCCCACAGGGGAGAUAGUUUAUUUUAUCGCCUCAGUGGUAGUCCUGUUUAAUUAUGAGGAGAGGACUCAGCGA | 0.345 |
| GUAUACGGUUAUCGAGGAAAGGACUGUAGAGCGAAUGUUUACCUUCUUCCCACAGGGGAGAUAGUUUAUUUUAUCGCCUCAGUGGUAGUACUAUUUAAUUAUGAGGAGAGGACUCAGCGA | 3.85 |
| UGACAAGGGCACUGCAGAGCCAUGCCUUUCCUUGACAUACAGAAAAAGCUGGGCAUCAGCCUGGACCGGCACUUUAUAAUCCAGAGUGCAGAACAGCCCUACAAGAUCGCCGCUCGGUGC | 0.0743 |
| GCAGGAUCUUCUAAGUACCAGUGGGACAUUAUGAAAUCCCUUGGGCUCUCUGAUGACGACAUAGUGAAGUUUUCUGAAGCAGAACAUUGGCUUGAUUAUUUCCCACCACUGGCUAUUCAG | 0.162 |
| UACUCAACUUUCUUGCCACAUUUUGAAUUCCAAGACAUUAUUCCUCCAGAUGACUUCCUAACGAGUGAUGAAGAAGUAGAUUUGGUUUUAUUUGGAACUAUGAGAGGUCAUGUGGUUGGA | 0.262 |
| GCGGCAGAAUCAUGGAGGACAUAAUGCAGCUCCCCAAAGCGCGCGUCAACGCCAGCAUGCUAGCUCAAUUCAUCGACCGGCCCGUGUGCUUCGUGGGGAAGCUGGAAAAGAUUCAUCCCA | 0.095 |
| CUGUGUGUGCUGAAUAAAUGGCUUGUAAGAACUGUCCUCCAAGCUGUAACCCAUGCUGUUAUUAUAGUUGCUGCAAAAUGUUCUUCCUGAUAUUGAUUUUAUUUGUUAACUGAAGGUCUC | 0.516 |
| AGAAUCUUGGGACUGUUUUACUUAAUUGGUCAUUGAUAGCUUAACAAGCAUGGAGAUAAGAUUAGAAAUCUUGACAUCAACAGGUAUUAAGCAGAAAAAACCCUGGCCACGUGUCUCCUG | 0.197 |
| CCAAGUGAUUCAUCCCAAGGACAGGCCACCCCAUUUGAUGCCUGGACUGAUGACAGUAUGGAAGGGCCUAGUCAAAAUGUUGAAGCUGAGUCAAUUCAAGAUAAUGCGAGUAUGGAAGAG | 0.337 |
| GGGACUGAUUCAUCCCAAGGACAGGCAACCCCAUUUGGUGUUUGGAAUGAUGACAGUAUGGAAGGGCCUAGUCAAAAUGUUGAAGCUGAGUCAAUUCAGGAUGCCAUGAGUAUGGAAGAG | 0.284 |
| UCUGGCCACACUCGUGUGUAUGGUGUUUGCUUUGUGGAUACUUCACUGGGCAAGUUUUUCAUCGGCCAGUUUUCGGAUGACCGCCACUGUUCCAGAUUUAGGACGCUAGUGGCUCACUAU | 0.209 |

Set 3
Target: Sal-like protein 4, full length isoform A (SALL4, Homo sapiens, UniProt Q9UJQ4, residues 1-1053)
Sequence of UniProt Q9UJQ4 (whole entry, looked up): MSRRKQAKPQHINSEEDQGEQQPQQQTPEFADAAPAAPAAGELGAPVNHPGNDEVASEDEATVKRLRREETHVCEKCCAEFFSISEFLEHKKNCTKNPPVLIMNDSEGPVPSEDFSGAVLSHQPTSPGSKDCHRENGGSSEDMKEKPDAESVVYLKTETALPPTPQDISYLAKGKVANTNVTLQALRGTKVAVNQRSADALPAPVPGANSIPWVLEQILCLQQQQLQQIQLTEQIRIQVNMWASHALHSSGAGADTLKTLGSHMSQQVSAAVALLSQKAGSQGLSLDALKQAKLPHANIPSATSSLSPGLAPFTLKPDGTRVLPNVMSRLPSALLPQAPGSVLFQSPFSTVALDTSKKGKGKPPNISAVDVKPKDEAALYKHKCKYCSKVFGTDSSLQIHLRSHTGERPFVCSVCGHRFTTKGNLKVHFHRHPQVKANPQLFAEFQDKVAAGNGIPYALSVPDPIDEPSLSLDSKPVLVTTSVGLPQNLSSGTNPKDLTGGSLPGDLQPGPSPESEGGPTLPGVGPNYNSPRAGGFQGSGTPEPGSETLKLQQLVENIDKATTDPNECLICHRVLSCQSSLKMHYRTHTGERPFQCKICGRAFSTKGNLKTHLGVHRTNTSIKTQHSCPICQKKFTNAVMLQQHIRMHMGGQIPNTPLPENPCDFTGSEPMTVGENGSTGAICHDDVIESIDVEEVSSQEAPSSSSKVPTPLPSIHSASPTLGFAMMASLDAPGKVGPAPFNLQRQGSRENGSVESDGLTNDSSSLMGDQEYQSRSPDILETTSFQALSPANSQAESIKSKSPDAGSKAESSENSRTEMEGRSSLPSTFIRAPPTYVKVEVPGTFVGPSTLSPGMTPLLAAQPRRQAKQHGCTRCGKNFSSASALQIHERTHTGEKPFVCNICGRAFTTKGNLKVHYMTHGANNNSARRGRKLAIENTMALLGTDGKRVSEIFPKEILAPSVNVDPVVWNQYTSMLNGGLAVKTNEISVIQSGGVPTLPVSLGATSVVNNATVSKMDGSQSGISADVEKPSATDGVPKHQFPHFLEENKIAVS
Method: universal PBM
Form: double-stranded DNA, one strand shown
Matrix: in vitro
Concentration: 600 nM
Setting: 8-mer, flanks averaged, mean of replicates
Direction: higher = stronger binding
| Oligonucleotide | E-score |
| --- | --- |
| GCCCCCCA | -0.404 |
| GCAGAGAC | -0.238 |
| AAACTCTT | 0.0386 |
| CCGGGCAG | -0.417 |
| ACTCCAGC | -0.165 |
| CGTTACAA | 0.229 |
| AGGACGAC | -0.322 |
| CCTTGTAC | 0.0822 |
| CCGGCTCG | -0.283 |
| ACAGTAGC | -0.112 |
| CATTGGCG | -0.156 |
| GACGCCTC | -0.183 |
| GAGGTAAC | -0.103 |
| ATACGTTG | 0.0762 |
| TCTAGACA | 0.0967 |
| AAATGGGC | -0.104 |
| AACTTTAT | 0.299 |
| TCTCAGCA | -0.114 |
| GTTGGTGA | -0.0851 |
| GCTCACCC | -0.277 |
| TACATTGA | 0.269 |
| GGGGCAAC | -0.25 |
| GGGCCTTA | -0.218 |
| AAACCTTT | 0.0438 |
| GCAGTTCC | -0.148 |

Set 4
Target: RNA binding protein fox-1 homolog 2, RRM domain, GST-SBP tag (RBFOX2, Homo sapiens, UniProt O43251-10, residues 100-194)
Method: RNA Bind-n-Seq
Form: RNA
Matrix: in vitro
Concentration: 365 nM
Setting: natural RNA segment, single round, ends assumed
Baseline: no-protein control
Direction: higher = stronger binding
Constant ends, left off below: GGGAGUUCUACAGUCCGACGAUC … UGGAAUUCUCGGGUGCCAA
| Oligonucleotide | RBNS enrichment (R) |
| --- | --- |
| UUGGGAAUCCUGGAUAGUGUUCUAUCCAUGGAAAGUGGUGGAAUAGGAAUUAAGGGUGUUCCCCCCCCCCCCAACCUCUUCCUCAGACCCAGCCACUUUCUAUGACUUAU | 0.399 |
| UUCUGAAUGUAAGGGAUUAAGAUAUCAGCUGUAAACUUAACUUUGUCUCCGAAUCUGAGAAUUCGAAAGAAAGCUAUGCUCAGUCUCUGUACAUGCUGAACUCCAAAUUC | 0.452 |
| AACUUGAAGAUUCCAGAGAUUCCCCACGACCUAAUGAUCUAAGAAUGCAGAUUGGAUUCUUUGAUGUUCAAAUUUCUCAUUUACUUAUGAAAAUCCCUAAUUAUAUAGUU | 1.35 |
| GGAUAUUCAUUUGAUUAUACGGGGGAGGGUCAGGGAAGAACGAACCUUGACGUUGCAGUGCAGUUUCACAGAUCGUUGUUAGAUCUUUAUUUUUAGCCAUGCACUGUUGU | 0.513 |
| GGAAUGAGACUGCUUUUAAAGCAACACAUCAGAUCUUCUGCGUCUAAAAUGUAGAGUUUUUUUGAUUGAGUAAUUAUACUUACUACUUAAUAAAUACUUAUUAAAAUGCU | 0.483 |
| GCACAUUAAUUCCUGUCCUAUAAGAGGGCUGUGGGAAACUGUGUACCUGGAGGUGGUCCAUGCCAGAUCCUCAUUUGUGCCUUCAGCUUCAUAGGCAGCAUACGCCUGCU | 0.521 |
| ACAUGCCCCACUCACACUAAAUCCCAGACCACACUGCCUGUUUCCCUUCUGAGGCCACAGGCAGGGCAGCUUAGUUCACCGCAGUCCGUACCUUGGAUAAGGGGCCUCAC | 0.365 |
| AAAUGGGUAUGCAAGGCUGAGAUUUCUACAGCAAUAAAGGAGACACACACUGGGCCAGAGAGGCCUGCCUUCUGCCUGCUCUCCUGCACUGACCCUUUGGAGGGGGUCUC | 0.712 |
| CUAAGCCUAAGCCUAUGCCUAUGCCUUUCAGAGUUGGGAUUCCGGGCAUGCCACACCACUGCCCAGCUCGUUUAUAUUCUUAAAAGCAAAAUAUUACAUUUCAUUACUGC | 1.18 |
| CAGUCCUUUCUUACAACAACUUGGAGCCAUAGUAACCUCCGAAAUGAGGUCUCAGCAAGCCACUUUACCACAACGAGCAACCCACCCAUAGGCACGUACCAGCCGCCACU | 0.375 |
| CGCAUGGUGAUCCUCCCCGCUCAGCCUCCUGAGGACUGGGAUUAAAGGUGUGUGCCUCCAUACUCUUGACACCAGUUUUCAGUUGAGGAUUGUUGAGCAUAGCUGGCUUG | 1.23 |
| UGUUUGAAGGAAAGAAUAUGGAUUUUUCAUGUCUUGAGGUUUUGUUCAUGCCCCCUUUGACUGAUCAGUGUGAUAAGGACUUUAGGAAAAAAAGCAUGUAUGUUUUUUAC | 14.3 |

Single results of other studies
| Substance | target | test | system | conditions | how to read | quantity | result |
| --- | --- | --- | --- | --- | --- | --- | --- |
| PhoQ, residues 284 288 289 292 302 303 TTCLQL | PhoP, residues 12 14 15 18 19 AQCLL (Escherichia coli, UniProt P23836) | Sort-seq, refers to: YFP reporter | E. coli | PhoQ-PhoP variant library, with: 10 µM Mg2+ | baseline: high Mg2+ state, higher = stronger signaling | fold induction | 2.29 |

Excerpt of the above (set 3):
| Oligonucleotide | E-score |
| --- | --- |
| AAACCTTT | 0.0438 |
| GCAGAGAC | -0.238 |
| GCAGTTCC | -0.148 |
| AACTTTAT | 0.299 |
| ACTCCAGC | -0.165 |
| AGGACGAC | -0.322 |
| GGGGCAAC | -0.25 |
| GAGGTAAC | -0.103 |
| CATTGGCG | -0.156 |
| CCTTGTAC | 0.0822 |
| AAATGGGC | -0.104 |
| CCGGCTCG | -0.283 |
